Published values from different studies.
Every numbered part comes from another study and shows a few of its results, in no order.

Sample 1 — method: protein-binding microarray; molecule type: double-stranded DNA, one strand shown; medium: in vitro; tested at: not given; direction: higher = stronger binding
Target: Max-binding protein MNT, bHLH-zipper, MAX partner unstated (MNT, Homo sapiens, UniProt Q99583, residues 220-300)
Notes: k-mer, scored over probes, only values ≥0.25
Construct (chain): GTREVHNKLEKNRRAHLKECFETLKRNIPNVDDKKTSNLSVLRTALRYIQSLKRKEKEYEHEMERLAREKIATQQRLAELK
| Oligonucleotide | E-score |
| --- | --- |
| AACACGCT | 0.393 |
| CATGGACG | 0.279 |
| AATGTGCG | 0.35 |
| AATCCCCA | 0.276 |
| TAACGTGA | 0.296 |
| CCCCGCCA | 0.357 |
| CCGCGCAC | 0.258 |
| ACACGAGC | 0.289 |
| CGTGTCCA | 0.319 |
| ATCACGTC | 0.255 |
| AGGCGCAC | 0.287 |
| CATGATCG | 0.274 |
| CACGGTGG | 0.271 |
| ACGCGGCG | 0.361 |
| GGAACGCA | 0.301 |
| AACAGCAT | 0.261 |
| ATGAGGGA | 0.268 |
| ACCCACGA | 0.303 |
| CAACCCCA | 0.308 |
| CACGCACC | 0.319 |
| ACGTTCAC | 0.28 |
| AGCATGGC | 0.396 |
| AAGCCACG | 0.322 |
| CGACCCCA | 0.252 |
| AATCACAT | 0.302 |

Sample 2 — method: RNA Bind-n-Seq; molecule type: RNA; medium: in vitro; tested at: not given; reference: input RNA pool; direction: higher = stronger binding
Target: RING finger protein unkempt homolog, zinc fingers 1-6, GST-SBP tag (UNK, Homo sapiens, UniProt Q9C0B0, residues 30-357)
Chain of UniProt Q9C0B0 (30-357, looked up): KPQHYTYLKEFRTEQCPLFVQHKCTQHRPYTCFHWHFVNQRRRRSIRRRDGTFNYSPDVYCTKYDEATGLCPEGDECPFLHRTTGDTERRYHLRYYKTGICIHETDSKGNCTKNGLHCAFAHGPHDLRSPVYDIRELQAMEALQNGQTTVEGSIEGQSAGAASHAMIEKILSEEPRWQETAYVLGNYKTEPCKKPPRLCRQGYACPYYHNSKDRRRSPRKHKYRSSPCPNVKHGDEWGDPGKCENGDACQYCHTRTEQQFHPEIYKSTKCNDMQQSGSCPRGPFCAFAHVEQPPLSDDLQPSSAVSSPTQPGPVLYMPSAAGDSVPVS
Notes: RNA with constant flanks, human and mouse sites, ends assumed
| Oligonucleotide | bound/input enrichment [ratio] |
| --- | --- |
| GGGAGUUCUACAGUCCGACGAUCCACUGGAAGUGUGCUUCUAGGCAUAGUCAUUGGUUUUGCAAAAAGAGGGCUCAAAUUUAAAUAGAAAUUUACAGCUAUUUGAAUGGUCAGAUAUACCAAGAAAGAAAAAUAUUUCUGUUCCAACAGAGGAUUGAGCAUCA | 0.173 |
| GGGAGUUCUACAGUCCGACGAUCGUGGCUCACCAUGCUUCUGAAAACAACAGGAUUUUCACUUUGAAUCUAUCUGCACCGUUUAUUAGCCAGUUCUACAAGGAAUCAUUGAUGAAAGUUAUGCCUUAUGUUGAUAUACUUUUUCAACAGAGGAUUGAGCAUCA | 0.225 |
| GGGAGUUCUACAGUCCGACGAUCGCAGCAAUGUCAAUACAAGGUUCAGCAAAUCUGCAAACCCAGUGGAAUAUUGUAGGGGAGUUCAGCAAUUUGCCCCAAGAAGAACUUAUAGAAUGGAUCAAAUAUAGUACUAAACCAGAUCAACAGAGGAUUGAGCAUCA | 3.41 |
| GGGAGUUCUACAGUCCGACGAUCAAAUGCUCAGUUCUAACUAAUGAAAUGGAUUUCCCAGUAGGGGUUUCUGCAUAUCACCUGUAUAGUAGUUAUAUGCAUAUGUUUCUGUGCAUGUUCUCUACACAAUUGUAAGGUGUCACUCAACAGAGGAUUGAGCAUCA | 0.297 |
| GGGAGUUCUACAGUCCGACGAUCAUGACCGUGAAAUAAUGAGAGAAGGCAGUGCUUUCGAGGAUGACGACAUGUUAGUGAGCACCAGCGCUUCCAACCUUCUCCUCGAGCCAGAGCAGAGCACCAGCAACCUGAAUGAAAAGACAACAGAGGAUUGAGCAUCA | 0.147 |
| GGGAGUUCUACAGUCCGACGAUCCAUGAAAUGGCUUGGGCAGUGGUCAAUGAAAUUGAAAAACAAUUGAAUGCUAUUCGAGACAAUAUCAAAAUUGGAGAAGAACGUGCUGCAAAACUUGACAGGAAAAUGGAAGAGCAGCAGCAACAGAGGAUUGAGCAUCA | 0.292 |
| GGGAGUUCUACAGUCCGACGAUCUAAGAUUUUGUUUUUUCACUUACAGGCUAUAAAAGAGCAGUACAGGGCCCAGCCCAGCUCCUUAGCUAGCGAAUUGCGAUGGAAUGACAUAGCUGUGGCAAAACUAAGCGGCCGCUGCUCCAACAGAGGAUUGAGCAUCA | 0.3 |
| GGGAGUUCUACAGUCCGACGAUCAGGGAUAUUGGUGCUGGAAAGGGAAAAUACUAUGCUGUCAAUUUUCCCAUGAGAGAUGGUAUAGAUGAUGAAUCAUAUGGACAAAUUUUUAAGCCUAUCAUCUCAAAAGUGAUGGAGAUGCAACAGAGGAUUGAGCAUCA | 0.465 |
| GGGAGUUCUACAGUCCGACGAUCAGACGAAGCUGCAGUGACCUGCUGCACCGGAUGAAGGAGCUCUGCAGAUACAUGAACAGCUUUGACAGCGAAGCUCACAACAACUAUAAAAACCAAGUGCUCUACUCCACGAUGCUGGUGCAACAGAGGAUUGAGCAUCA | 0.104 |
| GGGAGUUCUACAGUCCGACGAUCCAACAGUUUGCACAAGCUCAGCUUCAUCCUUCUUCAUCAGCAUCCUUUACUCAGGCUUCUAAUGUUUCUAAUUACUCAGGUCAGACGCUGCAGCCUAUAGGGGUGACGCAUGUGCCUGUUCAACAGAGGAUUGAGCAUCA | 0.217 |
| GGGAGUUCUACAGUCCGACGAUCGCUUUAAGUCUUUUGGGGAGCCAUAAGCCCUUGAUUCUACAGCAUGAGAACCUGGAAACCAUAGUGGACUUCAUAAAGAACACACUCCCCAACCUGGGCCUGGUGCAGAUGGAGAAGACCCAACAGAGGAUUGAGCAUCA | 0.237 |

Sample 3 — method: universal PBM; molecule type: double-stranded DNA, one strand shown; medium: in vitro; tested at: not given; direction: higher = stronger binding
Target: Sal-like protein 4, full length isoform B (SALL4, Homo sapiens, UniProt Q9UJQ4-2, residues 1-616)
Notes: 8-mer, flanks averaged, mean of replicates
| Oligonucleotide | E-score |
| --- | --- |
| CGAGGGTC | -0.369 |
| ACAAAATC | 0.119 |
| ACGCATAG | -0.0442 |
| AGACAGCC | -0.195 |
| CGGTTCTC | -0.172 |
| AGACGGTA | 0.0171 |
| CAAGCGCG | -0.0468 |
| ACGGAAGT | -0.0202 |
| CAACCCCA | -0.147 |
| CATAAGCG | 0.0218 |
| CCTTATGC | 0.118 |
| TAATTCGA | 0.228 |
| TATTCTAA | 0.259 |
| CACGATAC | 0.0791 |
| GAGTCAGA | -0.0212 |
| CGTCCGTA | -0.116 |
| AAATAACA | 0.326 |
| ATTGGTGG | 0.0747 |
| GATGGCCA | -0.0221 |
| AACACCTT | -0.0269 |
| CAGACGGA | -0.164 |
| AAGCGTGA | -0.0162 |
| TAGTCCCA | -0.0535 |
| GCACACTA | -0.0587 |
| GCTAAAAC | -0.0547 |

Sample 4 — method: RNA Bind-n-Seq; molecule type: RNA; medium: in vitro; tested at: 365 nM; reference: no-protein control; direction: higher = stronger binding
Target: RNA binding protein fox-1 homolog 2, RRM domain, GST-SBP tag (RBFOX2, Homo sapiens, UniProt O43251-10, residues 100-194)
Notes: natural RNA segment, single round, ends assumed
Construct (chain): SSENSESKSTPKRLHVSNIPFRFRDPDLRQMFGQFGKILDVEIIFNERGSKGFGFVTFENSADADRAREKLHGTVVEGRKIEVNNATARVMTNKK
| Oligonucleotide | RBNS enrichment (R) |
| --- | --- |
| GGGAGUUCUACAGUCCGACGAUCUGCGUCCAAGACUUACGGGUGGUUUAGGGGAAAGUGCUAGCAACAGUGUCAAUGUCAUUGUUAACUAUAUUUCAUAUUUGAGGUCUCAUUGUUUUCAAAUAAACAGUGUUUGGAAUUCUCGGGUGCCAA | 0.552 |
| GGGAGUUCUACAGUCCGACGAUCCUAGUCCUUGGAGCUAAACUGGGAGUGGGUGCCAGGUGGAGGGUAGCAGGUCUGACCAGCCCUACACCCUGCCACAGAUCACAGCUUGCCGGGCAAAUGACCCUGCGAAGUGGAAUUCUCGGGUGCCAA | 0.464 |
| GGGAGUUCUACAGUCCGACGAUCCACAAAAGCUAAAGCAGUGGCUGGGGCUUUGUUUUUAAAUUUUGGGUUUUUUUUUUUGUUGUUGUUAAUGAGCAGAAAGAGAGACAUAAUGACAGCUGAUGUUAAACUUUUGGAAUUCUCGGGUGCCAA | 1.15 |
| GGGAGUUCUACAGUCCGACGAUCCUAGAGAGAGCCGCGUUGCCAGUUCCUCUCCCACUCGCUCGUCCUUAUCCACCACGCUAUUAUAGUUUCCGUUGUCCUCCACCAGCAUUUCCCUUACUCUGAAGUUCCGGUGGAAUUCUCGGGUGCCAA | 0.629 |
| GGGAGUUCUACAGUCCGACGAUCAUCUAAAAAAAUGUAUAUGGGUAAGGACCUGAAAGAUCCAUGGAAAAGUUAACCCAGUUGAGAUUUUUAAAAAGUUUUACAAAUACAUAUAACACUUAUGUGCUGGGCUUUGGAAUUCUCGGGUGCCAA | 0.714 |
| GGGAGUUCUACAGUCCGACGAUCAUUUCAACAUGAAAAUUAUGUCAGUUUAUAGAAAUAUUUAUUGUUCAAGGUCUGUAAUUGUAUUUCAAAAACGAUGUCGUAUUCAAGUUGUGAAGGGAUUUGUUUUGUCAUGGAAUUCUCGGGUGCCAA | 0.6 |
| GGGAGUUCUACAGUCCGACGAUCCUUAAAGCAUUAAAAAUGCUUAUUAAUAACUUUGGUCAUUUAAAAAAUGCUACAAUGACUUCCUAUUAAAGGUUCAAUAUUUACACAUUCUUAUUGGUUGAUAUUACCACUGGAAUUCUCGGGUGCCAA | 0.457 |
| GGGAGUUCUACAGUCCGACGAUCGCCUAGGUCCCCCAAGCAUGGGGGACCCCUUCCCACAUAUAAGUUGAGAAGGUGCCUGCCAUAGCCAGGAGCGCAUCUCAAUGGAAACAUCACUGGGGUCACUUGGGAAGUGGAAUUCUCGGGUGCCAA | 0.207 |
| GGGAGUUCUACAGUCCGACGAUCACAGAUGCAGCUAAACUAAACAGUGCUUUUCAGACUAGUGUGUGUGUGUGUGUGUGUUCACACAUGUGUGUCUUCACAUGUAUAGAAGUAGCCCUGUAAGGAGGGGCAGAUGGAAUUCUCGGGUGCCAA | 0.719 |
| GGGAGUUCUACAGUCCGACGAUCUUUAUUUGGUUUUAUCUGAGAUAACUUAUGUUCAAGGUGAGAAUAAGAAAUAGCCAACUAGUUAAAAUGUAUGAAAAGAAAACUUUCCCCUGCUGUAUUUGUUGUGUAACUGGAAUUCUCGGGUGCCAA | 0.527 |
| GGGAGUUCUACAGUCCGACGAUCUAACCAAAUUCUAGCAUCUCAGAGUACAGUGAAAAGCAGCAGUGUACUCAGUGAUAAAGUUAGCCAGCUCCAGAUAUGCAUAAAGAGUCUAAAGGUUUCUAAGUGUAUCUUGGAAUUCUCGGGUGCCAA | 0.794 |
| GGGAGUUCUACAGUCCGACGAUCCCUUUCUUUAAGCUGUGUACAGUGAAAAUUGUCUUUACUGUAUUUUUGUUCUCUGGUAAUGUAAUAAGCAUGAUGGUGCCUUCUAUUAAUACAUCAUUCCAGUCUUGCUGUGGAAUUCUCGGGUGCCAA | 5.06 |

Sample 5 — method: aptamer microarray, sandwich; molecule type: DNA with 2'F-ANA; medium: in vitro; tested at: 200 nM; added: Cy3 exosite-II aptamer, 400 nM; direction: higher = stronger binding; oligonucleotide: GGTTGGTGTGGTTGG
Target: Prothrombin, mature alpha-thrombin (F2, Homo sapiens, UniProt P00734)
Notes: whole 15-mer aptamer, many near background
| Modification | mean fluorescence intensity |
| --- | --- |
| 2'F-ANA at 3 6 9 10 11 12 13 15 | 414 a.u. |
| 2'F-ANA at 4 7 8 10 11 12 | 123 a.u. |
| 2'F-ANA at 1 2 4 5 6 7 8 15 | 75.5 a.u. |
| 2'F-ANA at 1 5 6 10 12 14 | 47.3 a.u. |
| 2'F-ANA at 1 2 4 5 6 7 10 11 12 14 15 | 49.5 a.u. |
| 2'F-ANA at 3 5 12 14 15 | 77.8 a.u. |
| 2'F-ANA at 1 2 3 7 8 9 12 13 15 | 462 a.u. |
| 2'F-ANA at 3 4 5 9 10 13 | 48.3 a.u. |
| 2'F-ANA at 1 5 8 9 11 12 14 | 47 a.u. |
| 2'F-ANA at 2 3 4 5 7 9 12 14 15 | 54.1 a.u. |
| 2'F-ANA at 1 2 4 7 8 10 12 13 14 15 | 47.3 a.u. |
| 2'F-ANA at 3 6 8 9 10 11 12 13 | 485 a.u. |
| 2'F-ANA at 2 4 5 7 8 10 11 12 14 | 48.1 a.u. |
| 2'F-ANA at 2 3 6 8 10 12 13 14 15 | 255 a.u. |
| 2'F-ANA at 1 6 10 11 14 | 69.3 a.u. |
| 2'F-ANA at 2 3 5 6 8 9 | 120 a.u. |
| 2'F-ANA at 3 4 5 7 8 9 11 14 15 | 51.3 a.u. |
| 2'F-ANA at 1 2 3 6 9 10 12 | 73.9 a.u. |
| 2'F-ANA at 1 2 5 7 9 11 12 13 14 15 | 48.1 a.u. |
| 2'F-ANA at 2 6 7 9 10 12 14 | 89.9 a.u. |

Some of these lines once more (sample 3):
| Oligonucleotide | E-score |
| --- | --- |
| AGACAGCC | -0.195 |
| CGGTTCTC | -0.172 |
| AGACGGTA | 0.0171 |
| CAAGCGCG | -0.0468 |
| ACGGAAGT | -0.0202 |
| CAACCCCA | -0.147 |
| CATAAGCG | 0.0218 |
| CCTTATGC | 0.118 |
| TAATTCGA | 0.228 |
